Experimental data of several laboratories.
Protocols differ between the studies behind these lines. Values joined by “and” are separate records of one study, mostly repeats; a detail may differ. ± gives the spread as reported.

By UniProt entry, the sequences of proteins in these tests, tags left out.
UniProt P41143, whole entry: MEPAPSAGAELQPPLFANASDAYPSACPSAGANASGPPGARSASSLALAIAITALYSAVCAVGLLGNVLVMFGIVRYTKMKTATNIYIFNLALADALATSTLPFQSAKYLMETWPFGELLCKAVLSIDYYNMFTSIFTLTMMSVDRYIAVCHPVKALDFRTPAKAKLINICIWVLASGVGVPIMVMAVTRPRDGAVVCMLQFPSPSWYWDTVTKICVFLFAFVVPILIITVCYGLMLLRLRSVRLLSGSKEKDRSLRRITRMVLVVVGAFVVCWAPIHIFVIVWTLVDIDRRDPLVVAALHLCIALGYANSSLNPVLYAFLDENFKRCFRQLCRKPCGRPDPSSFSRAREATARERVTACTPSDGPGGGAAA

CC1(C)CC[C@]2(C(=O)O)CC[C@]3(C)C(=CC[C@@H]4[C@@]5(C)CC[C@H](OC(=O)NCc6ccccc6)C(C)(C)[C@@H]5CC[C@]43C)[C@@H]2C1 has an AUC(0-t) of 35.9 nmol·h/g (C57BL/6 mice, brain; intraperitoneal, 85 µmol/kg).
Cc1cc(S(=O)(=O)N(C)CC(=O)Nc2ccc3c(c2)OCCN3C2COC2)c2[nH]c(C#N)cc2c1: cytotoxicity “not toxic” (mouse bone marrow-derived macrophages, uninfected; concentration not given).
CN1c2ccc(OC(=O)Nc3cccnc3)cc2C2(C)CCOC12 (single isomer, unassigned) — result for cell survival: “no effect” (tau biosensor donor cells; concentration not given, 48 h; relative to: DMSO).
With O=C(Oc1nsnc1N1CCCCC1)N1CCOCC1 the viability was ≥ 97% (H292; trypan blue exclusion; up to 100 µM, 3 h).
The viability of Cc1ccccc1S(=O)(=O)Nc1cccc(C(=O)NC2CCN(c3ncnc4[nH]cnc34)CC2)c1 is reported as 104% (A549-ACE2; 2.469 µM).
C[C@H](CS)C(=O)N[C@H](Cc1c[nH]c2ccccc12)C(=O)O: “MIC of meropenem” 0.5 µg/mL (Klebsiella pneumoniae; VIM-1 producing; 50 µM, together with: meropenem).
With CC(C)(C)c1ccc(-c2cn(-c3ccc(C(=O)C=C(O)C(=O)O)cc3)nn2)cc1 the CC50 was > 50 µM (VeroE6-TMPRSS2).
With COc1ccc2c3c([nH]c2c1)[C@H](CC(C)C)N1C(=O)[C@H](CC(=O)OCc2ccccc2)NC(=O)[C@@H]1C3 the CC50 was 49.6 ± 2.8 µM (A549; MTT; 72 h).
With O=C(O)C(O)=CC(=O)c1cc(Oc2ccccc2)cc(Oc2ccccc2)c1 the CC50 was > 50 µM (VeroE6-TMPRSS2).
For CC(C)C[C@@H](NC(=O)[C@H](NC(=O)[C@H]1CCCN1)[C@H](C)O)C(=O)N[C@H](Cc1c[nH]cn1)C(=O)N[C@@H](C(=O)N[C@H](Cc1c[nH]cn1)C(=O)N[C@H](CC(N)=O)C(=O)N[C@H](CCCNC(=N)N)C(=O)N[C@H](CCCNC(=N)N)C(=O)N[C@H](CCCNC(=N)N)C(=O)N[C@H](CCCNC(=N)N)C(=O)N[C@H](CCCNC(=N)N)C(N)=O)[C@H](C)O, “incidence of adverse events” read 16.7% (phase I single ascending dose; healthy male subjects; 12 mg, total events).
The CC50 of COc1cc2c(N(C)C)nc(NCCCN(C)C)nc2cc1OCCCCCN is reported as 52.1 µM (human primary fibroblasts; cytotoxicity, CCK-8; 24 h).
With NCCNCCSc1ccccc1 the partition coefficient was 0.24 ± 0.02 (n-octanol/phosphate buffer; 25 µg/mL, pH 7.4).
The CC50 of O=C(NCc1ccc(F)cc1)C1C(=O)N(O)C(=O)c2cc([N+](=O)[O-])ccc21 (stereo not shown) is reported as > 50 µM (VeroE6-TMPRSS2).
For NC[C@@H](NC[C@@H]1CCCN1C[C@@H](CO)NC[C@@H](NCCC1CC2CCC1C2)c1ccccc1)c1ccccc1 (stereo partly shown), “potentiation of amikacin” read 2.3 fold (Klebsiella pneumoniae; bacterial growth; 16 µM, fold shift of IC90, together with: amikacin).
The IC50 of CS(=O)(=O)C=CCNC(=O)c1ccc2[nH]c(=O)n(C3CC3)c2c1 is reported as > 10 µM (MRC-5; cytotoxicity).
Under “days to zero efficacy”, CN1CC[C@]23c4c5ccc(O)c4O[C@H]2c2ncc(-c4ccc(Cl)cc4)cc2C[C@@]3(OCCCc2ccccc2)[C@H]1C5 is recorded as 3 days (tolerance; CD-1 mouse, HIV neuropathy; sc, 3.2 mg/kg twice daily, 3 days).
For COc1ccc2c(c1)sc1nc(-c3ccc4c(c3)CN(C3CCC(=O)NC3=O)C4=O)c(NCc3ccccc3)n12 (stereo not shown), the EC50 was 0.139 µM (MOLT-4; cell viability, CellTiter-Glo; 72 h).
The CC50 of O=C(O)C(O)=CC(=O)c1ccc(O)c(O)c1 is reported as > 50 µM (VeroE6-TMPRSS2).
For C[C@]12CCC3=C(C(=O)c4occ5c4[C@]3(C)[C@H]3O[C@H]3C5=O)[C@@H]1CCC2=O, the EC50 was 0.009 µM (MDA-MB-231; cytotoxicity, SRB; 72 h).
For COCn1cc(-c2cc([C@@H](C)NC(=O)c3cc(OCCN(C)C)ccc3C)c3ccccc3n2)cn1, the viability was 60.8% and 71.5% (Vero E6 cells; 125 µM).
C=CC(=O)Nc1cc(-n2c(=O)ccc3cnc4ccc(-c5cn[nH]c5)cc4c32)ccc1C — result for MNK phosphorylation: “no effect” (Ramos; western blot; concentration not given, 4 h).
For CC(CCN[C@H](CN[C@H](CO)CN1CCC[C@H]1CN[C@H](CN)c1ccccc1)c1ccccc1)c1ccccc1 (stereo partly shown), “potentiation of amikacin” read 7.9 fold (Escherichia coli; bacterial growth; 24 µM, fold shift of IC50, together with: amikacin).
With Cc1ccc(S(=O)(=O)Nc2cccc(C(=O)NC3CCN(c4ncnc5[nH]cnc45)CC3)c2)cc1Cl the viability was 86.2% (A549-ACE2; 66.67 µM).
With O=C(Nc1ccc(F)cc1)C1C(=O)N(O)C(=O)c2cc([N+](=O)[O-])ccc21 (stereo not shown) the CC50 was > 50 µM (VeroE6-TMPRSS2).
The viability of Cc1ccc(OCCN(C)C)cc1C(=O)N[C@H](C)c1cc(-c2ccn(C)n2)nc2ccccc12 is reported as 99.2% and 100% (Vero E6 cells; 31.25 µM).
O=C(NC1CCN(c2ncnc3[nH]cnc23)CC1)c1cccc(NS(=O)(=O)c2ccc([N+](=O)[O-])cc2)c1 has a viability of 100% (A549-ACE2; 0.01016 µM).
With [11CH3]Nc1ccc(C(=O)C2CCN(C3Cc4ccccc4CC3O)CC2)cc1 (single isomer, unassigned) the uptake was 0.593 %ID/g (Sprague-Dawley rat, striatum; 30 min).
The viability of O=C(Nc1ccccc1OS(=O)(=O)c1ccc(OC(F)(F)F)cc1)c1cnccn1 is reported as 84.2 ± 2.66% (MCF7; MTT; 100 µM, 24 h; relative to: untreated).
COc1ccc(CN[C@@H]2CO[C@H](C(c3ccccc3)c3ccccc3)C[C@H]2O)cc1 has an inhibition of 3.3% (Delta-type opioid receptor (OPRD1, Homo sapiens, UniProt P41143); radioligand binding; 10 µM, together with: [3H]DADLE).
For O=C(NC1CCN(c2ncnc3[nH]cnc23)CC1)c1cccc(NS(=O)(=O)c2ccc(Cl)cc2)c1, the viability was 91.5% (A549-ACE2; 22.22 µM).
NS(=O)(=O)c1ccc(-c2cn(-c3ccc(C(=O)C=C(O)C(=O)O)cc3)nn2)cc1 has a CC50 of > 50 µM (VeroE6-TMPRSS2).
With N=C(N)NCCC[C@H](NC(=O)c1ccccc1)C(=O)N[C@@H](CCCCN)C(=O)N[C@@H](C(N)=O)c1ccc(OCc2ccccc2)cc1 the CC50 was > 50 µM (HeLa DENV2 protease reporter; CellTiter-Blue).
The viability of COc1ccc(S(=O)(=O)Nc2cccc(C(=O)NC3CCN(c4ncnc5[nH]cnc45)CC3)c2)cc1 is reported as 106% (A549-ACE2; 0.09145 µM).
The EC50 of C[C@@]12C3=C(C(=O)c4occ(c41)[C@@H](O)[C@@H]1O[C@@H]12)[C@@H]1CCC(O)[C@@]1(C)CC3 (stereo partly shown) is reported as 1.69 µM (MDA-MB-231; cytotoxicity, SRB; 72 h).
